# Results of several laboratories.
# Numbered parts are unrelated; each lists some results of a single study.

# Set 1
# Target: RNA binding protein fox-1 homolog 2, RRM domain, GST-SBP tag (RBFOX2, Homo sapiens, UniProt O43251-10, residues 100-194)
# Technique: RNA Bind-n-Seq
# Form: RNA
# Matrix: in vitro
# Tested at: 365 nM
# Notes: natural RNA segment, single round, ends assumed
# Baseline: no-protein control
# Reading: higher = stronger binding
# Residues (chain): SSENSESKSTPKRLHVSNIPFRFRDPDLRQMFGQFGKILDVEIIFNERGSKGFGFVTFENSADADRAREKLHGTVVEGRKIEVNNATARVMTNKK
Strand,RBNS enrichment (R)
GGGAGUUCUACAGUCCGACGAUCACUGAGCUCUGUGCUUUCAUUCCUAGAGAUGUUUCUCAUUCCCAUUUAGUGAAAUGCUGUUGCCCCAAAGUGAUGGUUGUGGGAUUUCUUACCGGUCAUAGGCCCCGGUGUGGAAUUCUCGGGUGCCAA,0.369
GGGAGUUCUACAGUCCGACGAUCACUUCUCUUCCACAGUGGCCGGCCCACUCAAUCCCAGGGCCAUUGGCCUCACCCUCCCACCCCAUGUAAAUAUUACUCUGUCCUCUGGGGGGCGCUCUAGGGAGCCCCUUUGGAAUUCUCGGGUGCCAA,0.403
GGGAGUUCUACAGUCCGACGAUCCUUUACCCAGUGUGUUCCUGCAUUGUUUAGUGUGGAACUGUGGGCAGGUGCCGAGUGUCAGAUAGCAUCGGUCCAGAGCUCGUCAGAGGCCCCUGACAGUGGAAACAGAAUGGAAUUCUCGGGUGCCAA,1.97
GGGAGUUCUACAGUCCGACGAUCAUUCUUUCAAUUUGGUUUGUCCUUCAGUUUUCUUUUCUAUAAAUGUGCUUGGUGAAAUCAGCAAGAAACCAACCAUAUAAAACAGUGUGUGCCGGGCUCUGACUGAGAAAUGGAAUUCUCGGGUGCCAA,1.31
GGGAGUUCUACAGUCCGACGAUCCUCUUGGUUACAGUAGCGUAGCGUGCCCGUGUGCAUGUCCUUUGCGCCUGUGACCACCACCCCAACAAACCAUCCAGUGACAAACCAUCCAGUGGAGGUUUGUCGGGCACUGGAAUUCUCGGGUGCCAA,0.404
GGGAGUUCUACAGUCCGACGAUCAAGGUCCUACCAUCUUAUAUGUGACAUAGUUGUGUCCAGACUCCAGGCCUCUCCUGCUCAGUCUAGCUCUACAAAGUUCUGUAAAAGACUGGUCCGCAUAUAUAAAGGUCUGGAAUUCUCGGGUGCCAA,0.287
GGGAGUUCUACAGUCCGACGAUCGAGUCUAGUAAGUGUCUCUAGCCAGGCUUGUCAGUUGUGCAGGAAACAAGGCCUGGUCCUAGCAAACCUUAGCAUAUCUUCCCUUUUUAUUAUAAAUGGGUGGUUGUUUGUGGAAUUCUCGGGUGCCAA,0.576

# Set 2
# Target: Histone acetyltransferase KAT6A, winged helix 2, GST fusion (KAT6A, Homo sapiens, UniProt Q92794, residues 85-181)
# Technique: protein binding microarray
# Form: double-stranded DNA, one strand shown
# Matrix: in vitro
# Tested at: not given
# Notes: 8-mer, flanks averaged, mean of 2 arrays, mostly near background
# Baseline: not given
# Reading: higher = stronger binding
# Construct (chain): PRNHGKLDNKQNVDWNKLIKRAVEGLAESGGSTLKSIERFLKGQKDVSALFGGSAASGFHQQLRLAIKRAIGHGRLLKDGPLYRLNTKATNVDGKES
Strand,E-score
TGCATCCA,0.019
CCCATGAG,-0.115
ACGAACCA,0.086
ACGATGGC,-0.0918
GGCATTAC,0.00302
AAAGGACT,-0.105
CACGGGGG,0.2

# Set 3
# Target: Prothrombin, mature alpha-thrombin (F2, Homo sapiens, UniProt P00734)
# Technique: aptamer microarray, sandwich
# Form: DNA with 2'F-ANA
# Matrix: in vitro
# Tested at: 200 nM
# Notes: whole 15-mer aptamer, many near background
# Together with: Cy3 exosite-II aptamer, 400 nM
# Reading: higher = stronger binding
# Strand: GGTTGGTGTGGTTGG
Modification,mean fluorescence intensity [a.u.]
2'F-ANA at 1 4 5 6 8 10 11 12 15,64.3
2'F-ANA at 1 3 4 5 6 7 8 9 12 13 15,78
2'F-ANA at 3 4 5 6 7 8 9,116
2'F-ANA at 3 5 6 7 8 11 12 13 14,58.8
2'F-ANA at 1 2 3 4 7 9 14,79.7
2'F-ANA at 3 8 12 14 15,783

# Mixed results
Substance,target,assay,system,conditions,scale,measurement,result
"PhoQ, residues 284 288 289 292 302 303 SLANKL","PhoP, residues 12 14 15 18 19 VQALL (Escherichia coli, UniProt P23836)","Sort-seq, refers to: YFP reporter",E. coli,"PhoQ-PhoP variant library, together with: 10 µM Mg2+","baseline: high Mg2+ state, higher = stronger signaling",fold induction,12.8

# Excerpt of the above (set 1):
Strand,RBNS enrichment (R)
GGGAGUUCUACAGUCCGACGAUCCUCUUGGUUACAGUAGCGUAGCGUGCCCGUGUGCAUGUCCUUUGCGCCUGUGACCACCACCCCAACAAACCAUCCAGUGACAAACCAUCCAGUGGAGGUUUGUCGGGCACUGGAAUUCUCGGGUGCCAA,0.404
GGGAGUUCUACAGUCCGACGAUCAUUCUUUCAAUUUGGUUUGUCCUUCAGUUUUCUUUUCUAUAAAUGUGCUUGGUGAAAUCAGCAAGAAACCAACCAUAUAAAACAGUGUGUGCCGGGCUCUGACUGAGAAAUGGAAUUCUCGGGUGCCAA,1.31
